Experimental data collected from several papers.
B1: POLA1 1265-1462 (Homo sapiens, UniProt P09884); sequence looked up; chain AQLTDEEKYRDCERFKCPCPTCGTENIYDNVFDGSGTDMEPSLYRCSNIDCKASPLTFTVQLSNKLIMDIRRFIKKYYDGWLICEEPTCRNRTRHLPLQFSRTGPLCPACMKATLQPEYSDKSLYTQLCFYRYIFDAECALEKLTTDHEKDKLKKQFFTPKVLQDYRKLKNTAEQFLSRSGYSEVNLSKLFAGCAVKS
B2: Fcho2 1-390 (Rattus norvegicus, UniProt D3ZYR1); chain MVMAHFVENFWGEKNNGFDVLYHNMKHGQISTKELADFVRERATIEEAYSRSMTKLAKSASNYSQLGTFAPVWDVFKTSTEKLANCHLDLVRKLQELIKEVQKYGEEQVKSHKKTKEEVAGTLEAVQAIQNITQALQKSKENYNAKCVEQERLKKEGATPREIEKAAVKSKKATDTYKLYVEKYALTKADFEQKMTETAQKFQDIEETHLIHIKEIIGSLSNAIKEIHLQIGQVHEEFINNMANTTIESLIQKFAESKGTGKERPGLIEFEECDPASAVEGIKPRKRKTFALPGIIKKEKDAESVECPDADSLNIPDVDEEGFSIKPEANQNDTKENHFYSSSDSDSEDEEPKRYRIEIKPVHPNNVHHTMASLDELKVSIGNITLSPAV
B3: SIR4 744-1358 (Saccharomyces cerevisiae, UniProt P11978); sequence looked up; chain PGKMELVYVSDSDDSSSDNDSLTDLESLSSGESNEIKVTNDLDTSAEKDQIQAGKWFDPVLDWRKSDRELTKNILWRIADKTTYDKETITDLIEQGIPKHSYLSGNPLTSVTNDICSVENYETSSAFFYQQVHKKDRLQYLPLYAVSTFENTNNTEKNDVTNKNINIGKHSQEQNSSSAKPSQIPTVSSPLGFEETKLSTTPTKSNRRVSHSDTNSSKPKNTKENLSKSSWRQEWLANLKLISVSLVDEFPSELSDSDRQIINEKMQLLKDIFANNLKSAISNNFRESDIIILKGEIEDYPMSSEIKIYYNELQNKPDAKKARFWSFMKTQRFVSNMGFDIQKSCEPVSISTSVKPHVVEPEHMADAKIMPKDILQITKKPLMVKNVKPSSPPDVKSLVQLSTMETKTLPEKKQFDSIFNSNKAKIIPGNGKHASENISLSFSRPASYGYFSVGKRVPIVEDRRVKQLDDITDSNTTEILTSVDVLGTHSQTGTQQSNMYTSTQKTELEIDNKDSVTECSKDMKEDGLSFVDIVLSKAASALDEKEKQLAVANEIIRSLSDEVMRNEIRITSLQGDLTFTKKCLENARSQISEKDAKINKLMEKDFQVNKEIKPY
B4: SIN4 1-974 (Saccharomyces cerevisiae, UniProt P32259); chain MMLGEHLMSWSKTGIIAYSDSQSSNANICLTFLESINGINWRFHTPQKYVLHPQLHEVQYQESSSTLSTHSTTTSVNGSTTAGVGSTPNFGGNSNKSPPQFFYNISSIHWNNWFSLPGDMLAVCDELGNMTMLITGQRPDRATTYEKLTMVFQDNVYKIYNHVMPLKPVDKLKPMNIERKQTRKEYNTSILEFRWLTSSKSVIVSQFCAFDSSSNTYRSRAQQVPPYGVYHPPFIKYACLAIRKNGQIDFWYQFSNSKDHKKITLQLLDTSNQRFKDLQWLEFARITPMNDDQCMLITTYSKLSKNISFYKLHVNWNLNATKPNVLNDPSLKIQFILSTTLDPTDDEGHVLKLENLHVVSKSSIEKDPSPEILVLYNVCDTSKSLVKRYRLAPTQLSAEYLVILKPDLNIDRNNSTNQIFQSRRYNLRRHSDIVLDKKVTLITSEMFDAFVSFYFEDGTIESYNQNDWKLETERLISQSQLGKFKNIIASPLSAGFNYGKLPLPPSVEWMKVSPSMCGVIVKQYNKKWPQFYAAVQKNYADPEKDSINATALAFGYVKSLHKQISAEDLTIAAKTHILRISFLDRKRAKEFITTLLKSLYSFFNISPDAPKEIMDKIITSRPLQKIMLLQLELGSCFSQENIEEMARVILYLKNVLFAFNGVARNFHFAIEQISNNSNQQQNPKLFQTIFSKQDLIHSLIPVAKWFVKFITYLTQEILILINDPTNKEYTLVHGIFGAKMSRTLILSILNEIKKVTQIVAKFPETSYPILNESSTFLKLVLSESPVDFEKFETFLVDVNNKFIALCEQQPSQEREFSLLVKAEIPPEYAKVGDFLLQYANNAVISHANAAAVYFADTSGLKISNSEFFNPEIFHLLQPLEEGLIIDTDKLPIKNRTSKSFSKLLYDDVTCDKLSVSEISDGKLKRCSRCGSVTRAGNIISSDKTIVPTSIQTKRWPTMYTRLCICSGMLFEMDG
B5: RAB32 Q85L (Homo sapiens, UniProt Q13637); sequence looked up; chain MAGGGAGDPGLGAAAAPAPETREHLFKVLVIGELGVGKTSIIKRYVHQLFSQHYRATIGVDFALKVLNWDSRTLVRLQLWDIAGLERFGNMTRVYYKEAVGAFVVFDISRSSTFEAVLKWKSDLDSKVHLPNGSPIPAVLLANKCDQNKDSSQSPSQVDQFCKEHGFAGWFETSAKDNINIEEAARFLVEKILVNHQSFPNEENDVDKIKLDQETLRAENKSQCC
B6: spt16 1-442 (Schizosaccharomyces pombe, UniProt O94267); chain MAEYEIDEITFHKRLGILLTSWKNEEDGKTLFQDCDSILVTVGAHDDTNPYQKSTALHTWLLGYEFPSTLILLEKHRITILTSVNKANMLTKLAETKGAAADVNILKRTKDAEENKKLFEKIIEYIRATNKKVGVFPKDKTQGKFINEWDSIFEPVKSEFNLVDASLGLAKCLAIKDEQELANIKGASRVSVAVMSKYFVDELSTYIDQGKKITHSKFSDQMESLIDNEAFFQTKSLKLGDIDLDQLEWCYTPIIQSGGSYDLKPSAITDDRNLHGDVVLCSLGFRYKSYCSNVGRTYLFDPDSEQQKNYSFLVALQKKLFEYCRDGAVIGDIYTKILGLIRAKRPDLEPNFVRNLGAGIGIEFRESSLLVNAKNPRVLQAGMTLNLSIGFGNLINPHPKNSQSKEYALLLIDTIQITRSDPIVFTDSPKAQGDISYFFGED
Sequence of UniProt O14114 (whole entry, looked up): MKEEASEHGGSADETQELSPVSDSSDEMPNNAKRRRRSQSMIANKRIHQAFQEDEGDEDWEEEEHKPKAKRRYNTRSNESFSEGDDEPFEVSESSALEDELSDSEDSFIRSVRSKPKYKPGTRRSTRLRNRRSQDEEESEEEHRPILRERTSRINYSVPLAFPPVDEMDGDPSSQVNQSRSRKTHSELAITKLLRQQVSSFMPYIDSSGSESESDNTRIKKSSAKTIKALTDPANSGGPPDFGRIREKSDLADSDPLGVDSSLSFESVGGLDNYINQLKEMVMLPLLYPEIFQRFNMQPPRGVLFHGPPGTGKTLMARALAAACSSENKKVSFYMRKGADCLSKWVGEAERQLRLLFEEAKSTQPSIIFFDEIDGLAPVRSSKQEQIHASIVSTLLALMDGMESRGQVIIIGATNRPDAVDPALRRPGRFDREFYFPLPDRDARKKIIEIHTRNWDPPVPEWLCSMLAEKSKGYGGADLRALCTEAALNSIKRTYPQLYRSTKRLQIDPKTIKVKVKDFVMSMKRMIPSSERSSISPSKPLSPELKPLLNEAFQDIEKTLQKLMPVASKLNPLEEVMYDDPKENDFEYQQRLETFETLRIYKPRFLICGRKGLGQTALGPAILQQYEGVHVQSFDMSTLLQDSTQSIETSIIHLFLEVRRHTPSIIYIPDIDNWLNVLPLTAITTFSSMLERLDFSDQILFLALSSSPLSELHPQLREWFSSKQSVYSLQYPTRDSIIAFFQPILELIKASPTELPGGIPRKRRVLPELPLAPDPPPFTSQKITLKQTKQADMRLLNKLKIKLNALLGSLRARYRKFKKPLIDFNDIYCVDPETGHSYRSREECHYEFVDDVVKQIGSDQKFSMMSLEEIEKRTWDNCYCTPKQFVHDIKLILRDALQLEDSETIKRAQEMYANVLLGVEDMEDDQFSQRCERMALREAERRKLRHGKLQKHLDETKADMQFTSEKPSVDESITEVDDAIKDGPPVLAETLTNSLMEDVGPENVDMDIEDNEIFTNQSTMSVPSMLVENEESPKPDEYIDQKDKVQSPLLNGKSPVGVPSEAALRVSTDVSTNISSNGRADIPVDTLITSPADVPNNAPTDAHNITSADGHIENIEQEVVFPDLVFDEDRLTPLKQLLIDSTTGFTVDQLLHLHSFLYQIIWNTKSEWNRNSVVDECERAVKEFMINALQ
Sequence of UniProt Q96CV9 (whole entry, looked up): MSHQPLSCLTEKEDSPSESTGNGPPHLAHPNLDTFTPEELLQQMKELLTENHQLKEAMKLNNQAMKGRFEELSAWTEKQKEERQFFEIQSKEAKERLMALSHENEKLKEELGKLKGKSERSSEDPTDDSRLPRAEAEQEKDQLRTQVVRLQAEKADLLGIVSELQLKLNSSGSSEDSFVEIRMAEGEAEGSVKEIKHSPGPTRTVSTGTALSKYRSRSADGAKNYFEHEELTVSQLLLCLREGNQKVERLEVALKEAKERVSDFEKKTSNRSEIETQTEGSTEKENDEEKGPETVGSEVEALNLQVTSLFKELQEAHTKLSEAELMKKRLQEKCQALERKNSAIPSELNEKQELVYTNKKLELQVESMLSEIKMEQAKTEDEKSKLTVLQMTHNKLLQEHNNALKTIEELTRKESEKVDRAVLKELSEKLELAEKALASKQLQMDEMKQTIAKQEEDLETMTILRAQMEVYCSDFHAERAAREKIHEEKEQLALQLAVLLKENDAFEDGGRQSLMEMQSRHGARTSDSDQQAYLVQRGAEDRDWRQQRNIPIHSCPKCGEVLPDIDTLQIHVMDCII
Sequence of UniProt P19263 (whole entry, looked up): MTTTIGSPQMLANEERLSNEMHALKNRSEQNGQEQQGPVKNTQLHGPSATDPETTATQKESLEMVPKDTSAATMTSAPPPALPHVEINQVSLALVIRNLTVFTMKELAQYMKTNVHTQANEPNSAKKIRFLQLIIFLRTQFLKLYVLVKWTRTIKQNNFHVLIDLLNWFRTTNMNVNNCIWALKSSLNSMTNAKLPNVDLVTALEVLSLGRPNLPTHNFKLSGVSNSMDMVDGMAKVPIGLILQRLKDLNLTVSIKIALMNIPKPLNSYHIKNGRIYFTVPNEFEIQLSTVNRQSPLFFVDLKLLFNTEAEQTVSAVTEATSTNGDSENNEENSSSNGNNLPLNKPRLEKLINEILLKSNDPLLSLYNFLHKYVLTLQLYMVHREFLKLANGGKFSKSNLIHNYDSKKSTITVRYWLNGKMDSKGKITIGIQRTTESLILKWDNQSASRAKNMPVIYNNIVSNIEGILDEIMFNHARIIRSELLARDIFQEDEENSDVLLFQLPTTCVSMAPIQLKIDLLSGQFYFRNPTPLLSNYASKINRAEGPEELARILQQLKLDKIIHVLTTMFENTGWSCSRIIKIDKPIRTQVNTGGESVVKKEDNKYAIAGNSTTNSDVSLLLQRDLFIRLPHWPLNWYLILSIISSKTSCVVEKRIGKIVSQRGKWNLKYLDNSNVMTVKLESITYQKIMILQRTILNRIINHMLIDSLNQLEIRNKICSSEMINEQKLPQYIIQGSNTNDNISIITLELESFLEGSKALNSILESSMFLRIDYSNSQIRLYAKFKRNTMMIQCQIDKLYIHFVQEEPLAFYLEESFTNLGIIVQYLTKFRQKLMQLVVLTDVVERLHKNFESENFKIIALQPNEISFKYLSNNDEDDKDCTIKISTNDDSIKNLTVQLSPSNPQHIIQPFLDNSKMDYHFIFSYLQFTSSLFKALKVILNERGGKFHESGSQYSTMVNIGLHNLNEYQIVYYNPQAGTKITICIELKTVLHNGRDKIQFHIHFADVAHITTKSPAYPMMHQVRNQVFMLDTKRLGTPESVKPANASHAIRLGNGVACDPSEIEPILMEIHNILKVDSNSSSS
Sequence of UniProt P49643 (whole entry, unmodified, looked up): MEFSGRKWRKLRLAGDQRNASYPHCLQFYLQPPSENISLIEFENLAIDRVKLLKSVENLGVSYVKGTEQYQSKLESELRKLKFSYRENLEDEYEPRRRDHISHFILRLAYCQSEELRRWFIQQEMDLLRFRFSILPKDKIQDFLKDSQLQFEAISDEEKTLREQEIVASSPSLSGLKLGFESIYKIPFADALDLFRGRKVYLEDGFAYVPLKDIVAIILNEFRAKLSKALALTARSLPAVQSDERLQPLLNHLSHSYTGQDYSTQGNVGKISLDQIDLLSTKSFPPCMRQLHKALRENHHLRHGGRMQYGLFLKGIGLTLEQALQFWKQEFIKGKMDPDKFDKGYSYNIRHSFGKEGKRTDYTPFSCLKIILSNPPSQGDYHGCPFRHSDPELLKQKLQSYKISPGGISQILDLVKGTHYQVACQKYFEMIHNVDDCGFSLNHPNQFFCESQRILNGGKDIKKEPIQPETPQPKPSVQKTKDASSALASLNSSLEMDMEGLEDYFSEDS

| Molecule | target or system | assay | system | setting | how to read | measurement | result |
| --- | --- | --- | --- | --- | --- | --- | --- |
| GSGAGKETSF | human MAGI1-3/6 PDZ construct (MBP fusion) | automated holdup | peptide, purified PDZ protein | concentration not given, unit not given | relative to: biotin control resin, higher = stronger binding | binding intensity | 0.0399 |
| B1 (POLA1 1265-1462) | PRIM2 1-265 (Homo sapiens, UniProt P49643) | co-purification | – | – | – | binding | binds |
| SKKNNAASELAAPYSSYVSQIRKHKRVSPNAAPR (Nup60 285-318 N296A (Saccharomyces cerevisiae, UniProt P39705); sequence looked up) | NUP85/SEH1 Nup85 1-564 (Saccharomyces cerevisiae) | pull-down | peptide | – | – | binding | binds |
| B2 (Fcho2 1-390) | AP2A2/AP2B1/AP2M1/AP2S1 core, lacking appendage domains (Mus musculus) | liposome binding | liposomes | – | – | binding | binds |
| B3 (SIR4 744-1358) | SIR3 1-850 (Saccharomyces cerevisiae, UniProt P06701) | cross-linking mass spectrometry | – | – | – | binding | binds |
| B4 (SIN4 1-974) | RGR1 1-1082 (Saccharomyces cerevisiae, UniProt P19263) | cryo-EM | – | – | – | binding | binds |
| GGWVEKETYY | human MAGI1-3/6 PDZ construct (MBP fusion) | automated holdup | peptide, crude extract | concentration not given, uncorrected, unit not given | relative to: biotin control resin, higher = stronger binding | binding intensity | -0.0375 |
| B5 (RAB32 Q85L) | OPTN (Homo sapiens, UniProt Q96CV9) | pull-down | – | – | – | binding | binds |
| ALB (Homo sapiens, UniProt P02768) | LACTB (Homo sapiens, UniProt P83111) | cross-linking MS | – | together with: DSSO | – | cross-linked residues | K375 to K240 |
| B6 (spt16 1-442) | abo1 (Schizosaccharomyces pombe, UniProt O14114) | pull-down | – | – | – | binding | binds |
| nlpI (Escherichia coli, UniProt P0AFB1) | protein N130K/N225K/Q284R (Escherichia coli, UniProt P37648) | cryo-EM | – | – | – | binding | binds |

A few entries again:
| Molecule | target or system | assay | system | setting | how to read | measurement | result |
| --- | --- | --- | --- | --- | --- | --- | --- |
| B2 (Fcho2 1-390) | AP2A2/AP2B1/AP2M1/AP2S1 core, lacking appendage domains (Mus musculus) | liposome binding | liposomes | – | – | binding | binds |
